# Results from different studies.
# Every numbered part comes from another study and shows a few of its results, in no order. “And” joins repeats or separate records; there may be more than shown.
# UniProt Q9UPE1, sequence (whole entry, looked up): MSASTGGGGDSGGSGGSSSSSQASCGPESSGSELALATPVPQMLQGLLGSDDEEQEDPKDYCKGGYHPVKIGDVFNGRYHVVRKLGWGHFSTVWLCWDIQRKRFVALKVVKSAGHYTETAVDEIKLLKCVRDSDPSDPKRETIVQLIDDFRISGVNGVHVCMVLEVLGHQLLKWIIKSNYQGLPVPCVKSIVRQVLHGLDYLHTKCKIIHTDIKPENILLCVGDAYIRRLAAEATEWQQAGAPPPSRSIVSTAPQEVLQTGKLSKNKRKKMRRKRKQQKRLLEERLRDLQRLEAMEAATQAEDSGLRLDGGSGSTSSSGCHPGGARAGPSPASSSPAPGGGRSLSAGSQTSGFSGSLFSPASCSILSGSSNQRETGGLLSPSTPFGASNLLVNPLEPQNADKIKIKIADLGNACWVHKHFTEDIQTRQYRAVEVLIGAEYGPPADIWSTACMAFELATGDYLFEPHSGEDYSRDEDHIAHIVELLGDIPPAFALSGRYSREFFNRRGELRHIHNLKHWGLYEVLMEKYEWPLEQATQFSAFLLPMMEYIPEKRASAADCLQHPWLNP
# UniProt Q9HCP0, sequence (whole entry, looked up): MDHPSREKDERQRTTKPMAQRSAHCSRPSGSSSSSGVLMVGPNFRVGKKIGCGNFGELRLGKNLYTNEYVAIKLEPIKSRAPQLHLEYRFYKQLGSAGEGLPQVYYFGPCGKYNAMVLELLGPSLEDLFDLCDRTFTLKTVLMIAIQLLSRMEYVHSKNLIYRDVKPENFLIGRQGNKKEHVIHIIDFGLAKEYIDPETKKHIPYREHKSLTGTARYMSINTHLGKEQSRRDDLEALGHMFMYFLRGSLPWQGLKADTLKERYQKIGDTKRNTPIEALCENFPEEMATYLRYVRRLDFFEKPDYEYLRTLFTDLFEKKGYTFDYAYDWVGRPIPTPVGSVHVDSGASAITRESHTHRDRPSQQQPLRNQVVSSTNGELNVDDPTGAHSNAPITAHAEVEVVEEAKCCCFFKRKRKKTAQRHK
# UniProt O43683, sequence (whole entry, looked up): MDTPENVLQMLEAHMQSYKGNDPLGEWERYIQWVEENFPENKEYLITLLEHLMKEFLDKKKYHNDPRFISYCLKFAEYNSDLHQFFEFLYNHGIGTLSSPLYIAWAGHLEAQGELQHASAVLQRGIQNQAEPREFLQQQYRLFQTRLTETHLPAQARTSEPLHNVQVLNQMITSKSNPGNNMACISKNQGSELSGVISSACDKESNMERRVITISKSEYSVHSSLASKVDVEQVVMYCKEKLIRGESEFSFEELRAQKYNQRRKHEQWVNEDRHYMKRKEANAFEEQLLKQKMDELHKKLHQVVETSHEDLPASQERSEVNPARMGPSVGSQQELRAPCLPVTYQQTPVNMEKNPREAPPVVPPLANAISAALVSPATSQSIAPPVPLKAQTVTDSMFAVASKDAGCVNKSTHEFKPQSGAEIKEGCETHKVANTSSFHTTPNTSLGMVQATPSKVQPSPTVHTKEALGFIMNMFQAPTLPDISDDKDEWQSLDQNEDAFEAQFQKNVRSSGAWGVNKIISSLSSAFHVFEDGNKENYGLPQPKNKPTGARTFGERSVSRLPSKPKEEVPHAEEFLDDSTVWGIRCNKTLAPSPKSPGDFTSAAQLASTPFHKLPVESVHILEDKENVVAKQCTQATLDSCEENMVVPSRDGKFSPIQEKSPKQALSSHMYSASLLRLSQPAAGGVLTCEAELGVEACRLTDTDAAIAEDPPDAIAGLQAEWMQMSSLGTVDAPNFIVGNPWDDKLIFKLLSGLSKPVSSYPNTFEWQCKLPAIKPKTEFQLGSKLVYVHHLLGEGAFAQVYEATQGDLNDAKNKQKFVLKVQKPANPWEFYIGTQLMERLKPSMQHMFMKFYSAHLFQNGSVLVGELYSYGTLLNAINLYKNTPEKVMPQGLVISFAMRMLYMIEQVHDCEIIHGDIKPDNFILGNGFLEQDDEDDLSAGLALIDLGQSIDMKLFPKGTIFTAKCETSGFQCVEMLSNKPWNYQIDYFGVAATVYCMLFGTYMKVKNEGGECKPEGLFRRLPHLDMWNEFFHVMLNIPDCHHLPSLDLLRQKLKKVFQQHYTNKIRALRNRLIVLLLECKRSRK
# UniProt Q6P2M8, sequence (whole entry, looked up): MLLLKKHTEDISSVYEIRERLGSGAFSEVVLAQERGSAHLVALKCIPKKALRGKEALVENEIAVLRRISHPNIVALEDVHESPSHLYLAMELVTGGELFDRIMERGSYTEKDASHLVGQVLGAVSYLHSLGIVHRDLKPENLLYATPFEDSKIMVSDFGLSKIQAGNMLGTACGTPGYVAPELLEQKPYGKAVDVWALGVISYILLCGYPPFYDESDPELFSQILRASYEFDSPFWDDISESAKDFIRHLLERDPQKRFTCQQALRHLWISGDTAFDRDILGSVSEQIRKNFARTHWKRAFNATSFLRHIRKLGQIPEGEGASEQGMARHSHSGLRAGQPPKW
# UniProt P20794, sequence (whole entry, looked up): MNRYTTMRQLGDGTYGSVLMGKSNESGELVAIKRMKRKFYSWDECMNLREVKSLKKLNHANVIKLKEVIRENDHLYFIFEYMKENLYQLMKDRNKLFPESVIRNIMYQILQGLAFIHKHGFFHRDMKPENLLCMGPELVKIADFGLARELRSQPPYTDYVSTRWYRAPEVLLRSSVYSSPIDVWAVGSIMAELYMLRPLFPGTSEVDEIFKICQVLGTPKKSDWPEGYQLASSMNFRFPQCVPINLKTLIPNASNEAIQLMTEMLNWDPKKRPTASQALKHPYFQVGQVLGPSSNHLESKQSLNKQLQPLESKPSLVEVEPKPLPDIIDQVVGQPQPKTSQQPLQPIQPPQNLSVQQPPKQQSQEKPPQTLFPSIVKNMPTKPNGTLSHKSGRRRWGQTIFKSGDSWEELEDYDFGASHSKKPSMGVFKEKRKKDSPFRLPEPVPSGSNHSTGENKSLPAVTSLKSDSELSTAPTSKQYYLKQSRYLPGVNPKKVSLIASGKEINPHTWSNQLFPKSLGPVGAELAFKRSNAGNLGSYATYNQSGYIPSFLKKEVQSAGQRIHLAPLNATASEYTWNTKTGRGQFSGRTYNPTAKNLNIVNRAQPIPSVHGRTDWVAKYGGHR
# UniProt P07332, sequence (whole entry, looked up): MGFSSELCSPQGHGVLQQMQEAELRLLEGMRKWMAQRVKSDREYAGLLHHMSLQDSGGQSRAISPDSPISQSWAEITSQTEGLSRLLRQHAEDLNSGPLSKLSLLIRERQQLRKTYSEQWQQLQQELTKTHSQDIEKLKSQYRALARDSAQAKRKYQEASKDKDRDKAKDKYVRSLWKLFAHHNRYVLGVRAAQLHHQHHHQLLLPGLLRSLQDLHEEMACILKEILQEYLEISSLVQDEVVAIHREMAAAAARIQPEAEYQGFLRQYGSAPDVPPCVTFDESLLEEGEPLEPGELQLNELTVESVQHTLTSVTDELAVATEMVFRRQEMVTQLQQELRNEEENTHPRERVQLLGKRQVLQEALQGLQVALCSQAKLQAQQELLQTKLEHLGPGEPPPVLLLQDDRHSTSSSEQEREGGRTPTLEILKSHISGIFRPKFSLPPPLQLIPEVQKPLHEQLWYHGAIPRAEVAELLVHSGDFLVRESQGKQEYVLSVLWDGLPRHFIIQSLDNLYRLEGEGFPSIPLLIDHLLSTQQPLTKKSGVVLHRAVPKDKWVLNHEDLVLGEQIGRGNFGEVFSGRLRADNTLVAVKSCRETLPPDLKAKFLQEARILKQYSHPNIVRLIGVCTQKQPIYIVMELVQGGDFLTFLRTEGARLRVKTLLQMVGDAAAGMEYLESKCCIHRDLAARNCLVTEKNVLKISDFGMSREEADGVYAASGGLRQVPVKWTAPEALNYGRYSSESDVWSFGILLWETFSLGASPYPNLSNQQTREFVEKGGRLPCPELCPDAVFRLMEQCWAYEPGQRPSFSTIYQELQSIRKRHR
# UniProt P50750, sequence (whole entry, looked up): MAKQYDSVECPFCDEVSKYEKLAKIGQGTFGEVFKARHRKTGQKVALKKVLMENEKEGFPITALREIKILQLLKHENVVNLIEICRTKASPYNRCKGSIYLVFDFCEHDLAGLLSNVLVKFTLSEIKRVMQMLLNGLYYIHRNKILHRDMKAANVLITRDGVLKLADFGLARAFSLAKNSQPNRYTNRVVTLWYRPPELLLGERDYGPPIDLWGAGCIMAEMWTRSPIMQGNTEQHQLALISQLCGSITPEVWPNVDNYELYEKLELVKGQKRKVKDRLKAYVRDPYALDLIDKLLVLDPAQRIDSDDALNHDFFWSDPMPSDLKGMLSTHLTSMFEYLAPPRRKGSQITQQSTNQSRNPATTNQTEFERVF
# UniProt Q99755, sequence (whole entry, looked up): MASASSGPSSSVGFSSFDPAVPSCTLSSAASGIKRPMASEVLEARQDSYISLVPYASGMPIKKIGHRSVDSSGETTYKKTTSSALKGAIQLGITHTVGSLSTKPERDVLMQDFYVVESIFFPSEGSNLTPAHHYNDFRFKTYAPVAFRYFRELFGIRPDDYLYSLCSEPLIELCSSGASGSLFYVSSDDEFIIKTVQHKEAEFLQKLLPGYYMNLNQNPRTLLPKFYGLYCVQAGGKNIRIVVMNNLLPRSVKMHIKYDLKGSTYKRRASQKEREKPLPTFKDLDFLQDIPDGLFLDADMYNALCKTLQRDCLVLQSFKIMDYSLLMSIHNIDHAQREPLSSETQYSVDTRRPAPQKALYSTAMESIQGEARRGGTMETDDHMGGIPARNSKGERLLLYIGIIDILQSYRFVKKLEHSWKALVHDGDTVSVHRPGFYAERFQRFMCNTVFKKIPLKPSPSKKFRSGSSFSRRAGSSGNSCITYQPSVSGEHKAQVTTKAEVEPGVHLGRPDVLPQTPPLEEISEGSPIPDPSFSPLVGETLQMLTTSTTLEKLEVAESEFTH

# Series 1 — sample: plasma
# Compound: O=C1CCC(N2Cc3cc(C4CCN(Cc5ccccc5)CC4)ccc3C2=O)C(=O)N1 (stereo not drawn)
test system,conditions,MRT(0-inf)
male ICR mice,"oral, 3.0 mg/kg",1.84 h and 1.98 h
male ICR mice,"intravenous, 1.0 mg/kg",3.17 h and 3.96 h
"ICR mouse, male","intravenous, 1.0 mg/kg",2.89 h
"Sprague Dawley rat, male","intravenous, 1.0 mg/kg",4.84 h
"Sprague Dawley rat, male","oral, 3.0 mg/kg",3.13 h
"ICR mouse, male","oral, 3.0 mg/kg",1.66 h
male CD-1 mouse,"oral, 3 mg/kg",1.83 h
rat Sprague Dawley male,"oral, 3.0 mg/kg",3.24 h and 3.46 h
rat Sprague Dawley male,"intravenous, 1.0 mg/kg",3.16 h and 4.39 h

# Series 2 — concentration: 1 µM
# SMILES: Cc1noc([C@H]2C[C@@H](c3ccc(C(F)(F)F)cc3)CN(C(=O)N3CCS(=O)(=O)C3)C2)n1
target,test,remaining binding [%]
"SRSF protein kinase 3 (SRPK3, Homo sapiens, UniProt Q9UPE1)","cell-free assay, competition with immobilised ligand",100
"Calcium/calmodulin-dependent protein kinase type 1B (PNCK, Homo sapiens, UniProt Q6P2M8)","cell-free assay, competition with immobilised ligand",100
"Phosphatidylinositol 4,5-bisphosphate 3-kinase catalytic subunit alpha isoform (PIK3CA, Homo sapiens, UniProt P42336, E545K)","cell-free assay, competition with immobilised ligand",65
"Tyrosine-protein kinase Fes/Fps (FES, Homo sapiens, UniProt P07332)","cell-free assay, competition with immobilised ligand",100
"Tyrosine-protein kinase Mer (MERTK, Homo sapiens, UniProt Q12866)","cell-free assay, competition with immobilised ligand",100
"Mitotic checkpoint serine/threonine-protein kinase BUB1 (BUB1, Homo sapiens, UniProt O43683)","cell-free assay, competition with immobilised ligand",100
"Phosphatidylinositol 4-kinase beta (PI4KB, Homo sapiens, UniProt Q9UBF8)","cell-free assay, competition with immobilised ligand",93
"LIM domain kinase 1 (LIMK1, Homo sapiens, UniProt P53667)","cell-free assay, competition with immobilised ligand",100
"Mitogen-activated protein kinase 4 (MAPK4, Homo sapiens, UniProt P31152)","cell-free assay, competition with immobilised ligand",100
"Serine/threonine-protein kinase MAK (MAK, Homo sapiens, UniProt P20794)","binding, competition with immobilised ligand",100
"Serine/threonine-protein kinase 35 (STK35, Homo sapiens, UniProt Q8TDR2)","cell-free assay, competition with immobilised ligand",99
"Casein kinase I isoform gamma-2 (CSNK1G2, Homo sapiens, UniProt P78368)","cell-free assay, competition with immobilised ligand",100
"Phosphatidylinositol 4,5-bisphosphate 3-kinase catalytic subunit beta isoform (PIK3CB, Homo sapiens, UniProt P42338)","cell-free assay, competition with immobilised ligand",99
"Insulin-like growth factor 1 receptor (IGF1R, Homo sapiens, UniProt P08069)","cell-free assay, competition with immobilised ligand",100
"Mitogen-activated protein kinase kinase kinase kinase 3 (MAP4K3, Homo sapiens, UniProt Q8IVH8)","cell-free assay, competition with immobilised ligand",100
"Tyrosine-protein kinase SYK (SYK, Homo sapiens, UniProt P43405)","cell-free assay, competition with immobilised ligand",96
"Receptor-type tyrosine-protein kinase FLT3 (FLT3, Homo sapiens, UniProt P36888, N841I)","cell-free assay, competition with immobilised ligand",100
"Receptor-interacting serine/threonine-protein kinase 2 (RIPK2, Homo sapiens, UniProt O43353)","cell-free assay, competition with immobilised ligand",100
"Cyclin-dependent kinase 9 (CDK9, Homo sapiens, UniProt P50750)","cell-free assay, competition with immobilised ligand",100
"Tyrosine-protein kinase ABL1, phosphorylated (ABL1, Homo sapiens, UniProt P00519, F317I)",binding,100
"Focal adhesion kinase 1 (PTK2, Homo sapiens, UniProt Q05397)","cell-free assay, competition with immobilised ligand",100
"Leucine-rich repeat serine/threonine-protein kinase 2 (LRRK2, Homo sapiens, UniProt Q5S007, G2019S)","cell-free assay, competition with immobilised ligand",94
"Phosphatidylinositol 4-phosphate 5-kinase type-1 alpha (PIP5K1A, Homo sapiens, UniProt Q99755)","cell-free assay, competition with immobilised ligand",88
"Casein kinase I isoform gamma-1 (CSNK1G1, Homo sapiens, UniProt Q9HCP0)","cell-free assay, competition with immobilised ligand",100
"Protein-tyrosine kinase 6 (PTK6, Homo sapiens, UniProt Q13882)","cell-free assay, competition with immobilised ligand",100

# Series 3 — read-out: enzyme activity; action: inhibitor; concentration: 0.5 µM; relative to: control
# Target: SRSF protein kinase 3 (SRPK3, Homo sapiens, UniProt Q9UPE1)
SMILES,remaining activity [%]
CCCCc1c(-c2ccc(O)cc2)[nH]c2nccnc12,98.6
O=C1c2ccccc2-c2nc3nnnn3nc21,89.4
c1cc(-c2cnn3cc(-c4ccc(OCCN5CCCCC5)cc4)cnc23)ccn1,94.8
CC(C)n1cnc2c(Nc3cccc(Cl)c3)nc(NCCO)nc21,47.7
O=C(O)/C=C/c1cc(Br)c(Br)c(Br)c1Br,66.9
N#C/C(=C(/N)SC1C=CC=CC1)c1cccc(C(O)c2ccncc2)c1 (stereo not drawn),96.1
O=Nc1c(-c2c(O)[nH]c3ccccc23)[nH]c2ccccc12,97.5
O=c1c(-c2ccc(F)cc2)c(-c2ccncc2)[nH]n1-c1ccc(Cl)cc1,92.2
CC(C)N(CCC(=O)c1ccc2ccccc2c1)Cc1ccccc1,96.5
COc1cc2c(N3CCN(C(=O)Nc4ccc(OC(C)C)cc4)CC3)ncnc2cc1OCCCN1CCCCC1,102
Clc1ccc(Nc2nnc(Cc3ccncc3)c3ccccc23)cc1,104
CC(C)(C)c1nc2c3cc[nH]c(=O)c3c3cc(F)ccc3c2[nH]1,58.6
C[C@@H](N)[C@H]1CC[C@H](C(=O)Nc2ccncc2)CC1,99.1
O=C1NC(=O)/C(=C/c2ccc3c(c2)OC(F)(F)O3)S1,95.4
CNc1cc2c(Nc3cccc(Br)c3)ncnc2cn1,97.1
COc1cc2c(Nc3ccc(Br)cc3F)ncnc2cc1OCC1CCN(C)CC1,102
CCN(CC)CCCCN1c2ccccc2Oc2ccc(Cl)cc21,104
FC(F)(F)c1ccc(/C=C/c2nc(COc3ccc(CCCCn4ccnn4)cc3)co2)cc1,104
N#CC(c1ccnc(NCCc2cccnc2)n1)c1nc2ccccc2s1 (stereo not drawn),89.5
O=C(c1ccccc1)c1ccc(N2CCOCC2)cc1O,103
Nc1nc(Nc2ccc(S(N)(=O)=O)cc2)nn1C(=S)Nc1c(F)cccc1F,48.7
NC(=O)c1ccc(-c2nc(-c3ccc4c(c3)OCCO4)c(-c3ccccn3)[nH]2)cc1,98.5
NC(=O)c1cccc(-c2cc(Nc3ccc(OC(F)(F)F)cc3)ncn2)c1,94.3

# Series 4 — species: mouse; sample: microsomes or S9; concentration: 2 µM; time: 0.5 h
SMILES,remaining compound [%]
Oc1cc(O)c2sc3nc(-c4ccccc4Cl)ccc3c2n1,> 99
COc1cnc(C(=O)N2CCCC23CCOC3)nc1 (stereo not drawn),> 100
COc1ccc(C2C(C(=O)N3CCN(c4ccccc4)CC3)CCC(=O)N2c2ccc3c(c2)OCO3)cc1 (stereo not drawn),12.8
CCC1c2c(OC)c3c(c(OC)c2C(c2cc(OC)c4c(c2OC)OCO4)C1C)OCO3 (stereo not drawn),26.2
Cc1cc(C)c(N2CC(=O)N(c3c(C)cc(C)cc3C)CC2=O)c(C)c1,2.64
CS(=O)(=O)C1=C(N)C(=O)N(c2ccccc2)C1c1ccccc1 (stereo not drawn),0.278
CC1(C)CNC(=O)c2nc(Cc3ccc(O)cc3)[nH]c2C1,98.5
COC(=O)c1cc2cc(-c3ccccc3)c3ccccc3c2o1,73.5
CC(C)n1ncc2c1NC(=O)CC21C(=O)Nc2ccccc21 (stereo not drawn),21.5
O=C(Cn1cc(C(=O)N2CCN(C3CCCC3)CC2)ccc1=O)Nc1nccs1,90.7
CCC(NC(=O)NCCc1cnn(C)c1C)c1c(C)noc1C (stereo not drawn),64
COCCCNC(=O)N1Cc2c(sc3c2CCCC3)-n2cccc2C1c1cc(F)cc(F)c1 (stereo not drawn),1.55
CC1CCC(C)N1C(=O)c1cc(Br)nn1-c1ncccc1Cl (stereo not drawn),3.41
CC(NC(=O)c1cn(C)nc1-c1ccc2c(c1)OCCCO2)c1ccc(-n2cncn2)cc1 (stereo not drawn),64.9
Cc1c(C(=O)NCC(C)c2ccccc2)oc2ccc3c(c12)C=CC1(CCCC1)O3 (stereo not drawn),58.2
CCOC(=O)Cc1c(C)nc2cc(-c3ccc(C)cc3)nn2c1O,28
CCC(CC)C(=O)N(C)c1ccc(-c2ccccc2)nn1,17.4
COc1cc(Cl)c(C)cc1NC(=O)Cn1ncc2c(N3CCN(c4ccccn4)CC3)ncnc21,21.2

# A few entries again (series 2):
target,test,remaining binding [%]
"Phosphatidylinositol 4,5-bisphosphate 3-kinase catalytic subunit alpha isoform (PIK3CA, Homo sapiens, UniProt P42336, E545K)","cell-free assay, competition with immobilised ligand",65
"Tyrosine-protein kinase Fes/Fps (FES, Homo sapiens, UniProt P07332)","cell-free assay, competition with immobilised ligand",100
"Tyrosine-protein kinase Mer (MERTK, Homo sapiens, UniProt Q12866)","cell-free assay, competition with immobilised ligand",100
"Mitotic checkpoint serine/threonine-protein kinase BUB1 (BUB1, Homo sapiens, UniProt O43683)","cell-free assay, competition with immobilised ligand",100
"Phosphatidylinositol 4-kinase beta (PI4KB, Homo sapiens, UniProt Q9UBF8)","cell-free assay, competition with immobilised ligand",93
"LIM domain kinase 1 (LIMK1, Homo sapiens, UniProt P53667)","cell-free assay, competition with immobilised ligand",100
"Mitogen-activated protein kinase 4 (MAPK4, Homo sapiens, UniProt P31152)","cell-free assay, competition with immobilised ligand",100
"Serine/threonine-protein kinase MAK (MAK, Homo sapiens, UniProt P20794)","binding, competition with immobilised ligand",100
"Serine/threonine-protein kinase 35 (STK35, Homo sapiens, UniProt Q8TDR2)","cell-free assay, competition with immobilised ligand",99
"Casein kinase I isoform gamma-2 (CSNK1G2, Homo sapiens, UniProt P78368)","cell-free assay, competition with immobilised ligand",100
"Phosphatidylinositol 4,5-bisphosphate 3-kinase catalytic subunit beta isoform (PIK3CB, Homo sapiens, UniProt P42338)","cell-free assay, competition with immobilised ligand",99
